Results of several laboratories.
Protocols differ between the studies behind these lines. Several values in a cell are separate wells, animals, samples, runs or records.
Target: Protein kinase C epsilon type (PRKCE, Homo sapiens, UniProt Q02156)
Residues used in one study (Q02156 1-737): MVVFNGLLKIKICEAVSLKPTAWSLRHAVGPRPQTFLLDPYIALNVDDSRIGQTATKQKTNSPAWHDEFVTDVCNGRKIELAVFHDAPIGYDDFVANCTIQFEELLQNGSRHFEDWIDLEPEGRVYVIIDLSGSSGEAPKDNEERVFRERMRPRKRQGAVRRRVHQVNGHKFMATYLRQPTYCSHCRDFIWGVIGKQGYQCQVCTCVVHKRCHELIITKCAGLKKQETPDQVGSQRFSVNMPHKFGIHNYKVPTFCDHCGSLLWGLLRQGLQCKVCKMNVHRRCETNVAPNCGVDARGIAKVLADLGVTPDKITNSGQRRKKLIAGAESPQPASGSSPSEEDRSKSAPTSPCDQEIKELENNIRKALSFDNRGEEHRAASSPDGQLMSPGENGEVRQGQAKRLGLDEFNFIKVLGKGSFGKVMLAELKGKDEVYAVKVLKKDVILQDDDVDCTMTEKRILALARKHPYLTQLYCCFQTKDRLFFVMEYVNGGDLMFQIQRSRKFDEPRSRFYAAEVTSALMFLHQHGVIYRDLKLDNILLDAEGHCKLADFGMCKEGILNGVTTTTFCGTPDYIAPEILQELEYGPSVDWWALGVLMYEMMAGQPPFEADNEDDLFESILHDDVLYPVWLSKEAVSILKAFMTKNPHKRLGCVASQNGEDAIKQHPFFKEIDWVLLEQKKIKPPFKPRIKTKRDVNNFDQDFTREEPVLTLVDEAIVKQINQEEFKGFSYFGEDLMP

SMILES | assay | system | setting | how to read | quantity | value
CNS(=O)(=O)Nc1nccc(Cc2c(C)c3ccc(Oc4ncccc4F)cc3oc2=O)c1F | cell-free assay, competition with immobilised ligand |  | 10 µM |  | remaining binding | 100%
Cc1cnc2nc1Nc1cccc(c1)COC/C=C/COCc1cc(ccc1OCCN1CCOCC1)N2 | binding |  | 0.1 µM |  | remaining binding | 75%
C=CC(=O)Nc1cccc(-c2cnc3[nH]cc(C(=O)NC(C)(C)C)c3n2)c1 | kinase activity |  | 0.1 µM |  | inhibition | 12% and 10%
O=c1c(-c2ccc(Cl)c(CN3CCOCC3)c2)coc2cc(O)ccc12 | enzyme activity, inhibitor |  | 1 µM |  | remaining activity | 104%
CC(=O)N1c2ccc(-c3ccc(CNC(=O)c4cn5cc(-c6cnc(N)nc6)nc(N6CCOCC6)c5n4)cc3)cc2CC[C@@H]1C | KINOMEscan |  | 10 µM |  | remaining binding | 84%
COc1ccc(NC(=O)Nc2ccc3c(c2)C(=O)N(C(C)CO)CC(C)C(CN(C)Cc2ccc4c(c2)OCO4)O3)cc1 (centres unmarked) | kinase activity, KinaseProfiler |  | 0.03 µM, species human | baseline: control | remaining activity | 96%
C=CC(=O)N1CCc2ccc(-n3c(=O)ccc4cnc5ccc(-c6cnn(C)c6)cc5c43)cc21 | KINOMEscan |  | 1 µM | baseline: DMSO control | remaining binding | 87%
Cc1c[nH]c2nccc(-c3ccc(C(=O)N[C@@H]4c5c(F)cc(C(F)F)cc5C[C@@H]4O)cn3)c12 | binding, competition with immobilised ligand |  | 3 µM |  | remaining binding | 18%
NC(=O)[C@@H](O)C[C@H]1CCc2sc3ncnc(O[C@H]4CC[C@H](N5CCOCC5)CC4)c3c21 | enzyme activity, inhibitor |  | 10 µM |  | inhibition | -6%
CN1CCN(Cc2ccc(-c3ccc(CO[C@H]4CCC[C@@H]4NC(=O)c4cc(-c5cnn(C)c5)cnc4N)cc3)cc2)CC1 | enzyme activity, inhibitor |  | 0.1 µM |  | inhibition | 11%
COc1c(OCCCN2CCOCC2)ccc2c1N=C(NC(=O)c1cnc(N)nc1)N1CCN=C21 | kinase activity, inhibitor |  | 1 µM | baseline: untreated control | remaining activity | 95%
C=CC(=O)Nc1cc(-c2nn(C3CCN(CCNC(=O)[C@H](C)CCC45CC6CC(CC(C6)C4)C5)CC3)c3ncnc(N)c23)ccc1Oc1ccccc1 | inhibitor, KiNativ profiling | biochemical | 2 µM |  | inhibition | 15.6%
CN1CCN(Cc2ccc(NC(=O)c3cccc(C#Cc4cnc(N)c5ncccc45)c3)cc2C(F)(F)F)CC1 | cell-free assay, competition with immobilised ligand |  | 50 nM |  | remaining binding | 63%
CNC(=O)C1CCN(c2cc(C)c(F)cc2NC(=O)c2ccc(-c3cc(O)ccc3C)c(C)c2)CC1 | binding, competition with immobilised ligand |  | 1 µM |  | remaining binding | 100%
O=C=[N][Ru-4]123([n]4c5ccc(O)cc5c5c6c(c7cc(F)c[n+]1c7c54)C(=O)NC6=O)[S+]1CC[S+]2CC[S+]3CC1 (centres unmarked) | enzyme activity |  | 100 nM, human enzyme, with: 10 µM ATP | baseline: untreated | remaining activity | 90%
Cc1ccc(-c2c(/C=C(\C#N)C(=O)NC(C)C)n(CCCO)c3ncnc(N)c23)cc1 | cell-free assay, competition with immobilised ligand |  | 1 µM |  | remaining binding | 88%
CCN1CCN(Cc2ccc(C(=O)Nc3ccc(C)c(NCc4cnc5[nH]ccc5c4OC)c3)cc2C(F)(F)F)CC1 | binding, competition with immobilised ligand |  | 1 µM |  | remaining binding | 100%

Repeated from above:
SMILES | assay | system | setting | how to read | quantity | value
CNC(=O)C1CCN(c2cc(C)c(F)cc2NC(=O)c2ccc(-c3cc(O)ccc3C)c(C)c2)CC1 | binding, competition with immobilised ligand |  | 1 µM |  | remaining binding | 100%
O=C=[N][Ru-4]123([n]4c5ccc(O)cc5c5c6c(c7cc(F)c[n+]1c7c54)C(=O)NC6=O)[S+]1CC[S+]2CC[S+]3CC1 (centres unmarked) | enzyme activity |  | 100 nM, human enzyme, with: 10 µM ATP | baseline: untreated | remaining activity | 90%
